Results of several laboratories.
Parts stem from different laboratories: compare values within a part only.

Block 1
Target: Histone acetyltransferase KAT6A, winged helix 2, GST fusion (KAT6A, Homo sapiens, UniProt Q92794, residues 85-181)
Technique: protein binding microarray
Molecule type: double-stranded DNA, one strand shown
Sample: in vitro
Concentration: not given
Notes: 8-mer, flanks averaged, mean of 2 arrays, mostly near background
Relative to: not given
Reading: higher = stronger binding
Measurement: E-score
Target sequence (chain): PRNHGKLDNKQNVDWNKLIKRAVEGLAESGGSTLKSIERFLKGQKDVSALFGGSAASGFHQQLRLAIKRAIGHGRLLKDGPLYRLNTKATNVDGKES
Oligonucleotide = AATTATGC; result = -0.0743
Oligonucleotide = GCGGTCCC; result = 0.197
Oligonucleotide = AGATGCCG; result = -0.00877
Oligonucleotide = ATGGCAAC; result = 0.141
Oligonucleotide = CTAGTTAA; result = -0.0422
Oligonucleotide = CGTCTGGC; result = 0.021
Oligonucleotide = CGGCGAAC; result = 0.243
Oligonucleotide = TCACGGAA; result = -0.061
Oligonucleotide = ATCTGCTC; result = 0.118
Oligonucleotide = CCGCGAGC; result = 0.222
Oligonucleotide = AGTTGCCG; result = -0.0326
Oligonucleotide = AATCAGAC; result = -0.00071
Oligonucleotide = AGTCGTTC; result = -0.0631
Oligonucleotide = GCACTTCC; result = -0.218
Oligonucleotide = AAAATCGC; result = 0.0391
Oligonucleotide = ATTCTGGG; result = 0.0087
Oligonucleotide = ACTGCACG; result = -0.0836
Oligonucleotide = AAGGAAAT; result = -0.0765
Oligonucleotide = GTCCAAAA; result = 0.0894
Oligonucleotide = CCCGTCCA; result = -0.00016

Block 2
Target: RNA binding protein fox-1 homolog 2, RRM domain, GST-SBP tag (RBFOX2, Homo sapiens, UniProt O43251-10, residues 100-194)
Technique: RNA Bind-n-Seq
Molecule type: RNA
Sample: in vitro
Concentration: 365 nM
Notes: natural RNA segment, single round, ends assumed
Relative to: no-protein control
Reading: higher = stronger binding
Measurement: RBNS enrichment (R)
Target sequence (chain): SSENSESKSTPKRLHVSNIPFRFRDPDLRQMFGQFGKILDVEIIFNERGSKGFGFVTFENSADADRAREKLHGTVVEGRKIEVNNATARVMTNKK
Oligonucleotide = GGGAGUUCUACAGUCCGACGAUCCCAUACCACUGUUCUUGCUAAAAGGAAGCUGCAUAUUUGUGUUCUUUCAUCUGUGGCUCUUUGCUAAAAAUCCGUAGAUCUGAGCUGCAGGUAAACGGAAGGGGCGUCGUUGGAAUUCUCGGGUGCCAA; result = 0.392
Oligonucleotide = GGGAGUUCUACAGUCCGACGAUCACAUCUUCUGAAGGCCCUCACUGCCUCAAGCCCUCUCCCCUCCUCGCAGGGCAGGCUUGGUGCACUGGCUUCUCUCACAUCUUUCUUGCAAUUAUGAUACUCUGAGAUUUUGGAAUUCUCGGGUGCCAA; result = 0.308
Oligonucleotide = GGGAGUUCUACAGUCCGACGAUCUGGCAGCUGGUUCUGGUGGCACUGAGAUGAGUGCCACCAGAGGCUCACACUCACUCUCUGUUGAGCUUCUUCCCAGGGAAGGGGAUUCUGGGACAGGGGGCUGCCACUAAUGGAAUUCUCGGGUGCCAA; result = 0.417
Oligonucleotide = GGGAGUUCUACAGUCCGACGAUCGAGUCUGUGGGCCAAGUGUCUGCCUAGAAGAGCUGUGUAUGUCUGGCUAGAAGCAGCCAGGCCAUGGAAACAAGUUGAAUACAGCGAUUGGUAGGCCUCAUGUCAGAAUCUGGAAUUCUCGGGUGCCAA; result = 0.318
Oligonucleotide = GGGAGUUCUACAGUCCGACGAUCUCCCUUACUGUUGCUGGGAGCCUCGCCCUUUGUCCCAACUGGGUAGAGCCCCCAGGUGCUGUUUGCUCAGGAGGCUGCUGUGGGGGUGCCUUCCUCAGCCUCUGGCCCUCUGGAAUUCUCGGGUGCCAA; result = 0.34
Oligonucleotide = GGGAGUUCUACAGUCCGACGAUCCAGGGACUUGCUCAUUCUAGGCAAGUGCUCUACCACUGAGCGGGAGUCACCCCUACUUCCUGGAUAGUAGGCUUUUUUAGUUGUGUGUUUUGUUUUGAGACAGUGUCUCAUGGAAUUCUCGGGUGCCAA; result = 1.27
Oligonucleotide = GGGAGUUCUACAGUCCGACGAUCAAUCCCUCAAAGGCUACCCUACCCGUGAUACCUUCUGGGAGGGGCGGAGUCACCGAGACUGAGAUGAGGAGAGGGGCACGUGCGCCCGCCCGCCCUCUGGGCUGUGGAGCUGGAAUUCUCGGGUGCCAA; result = 0.369
Oligonucleotide = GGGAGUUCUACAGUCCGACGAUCUUUCUGACACUAGAAUGCAACAGAUUGGAAACUUUUUGUGUAAAAUGAAAAAAACAAAGUGCUGGUUUUUUUUUUUUUUCUGUGAAGGUCUUCAGUGUUUUGCUUGUUCAUGGAAUUCUCGGGUGCCAA; result = 0.948

Block 3
Target: Ras GTPase-activating protein-binding protein 1, RRM domain (G3BP1, Homo sapiens, UniProt Q13283)
UniProt Q13283, sequence (whole entry, looked up): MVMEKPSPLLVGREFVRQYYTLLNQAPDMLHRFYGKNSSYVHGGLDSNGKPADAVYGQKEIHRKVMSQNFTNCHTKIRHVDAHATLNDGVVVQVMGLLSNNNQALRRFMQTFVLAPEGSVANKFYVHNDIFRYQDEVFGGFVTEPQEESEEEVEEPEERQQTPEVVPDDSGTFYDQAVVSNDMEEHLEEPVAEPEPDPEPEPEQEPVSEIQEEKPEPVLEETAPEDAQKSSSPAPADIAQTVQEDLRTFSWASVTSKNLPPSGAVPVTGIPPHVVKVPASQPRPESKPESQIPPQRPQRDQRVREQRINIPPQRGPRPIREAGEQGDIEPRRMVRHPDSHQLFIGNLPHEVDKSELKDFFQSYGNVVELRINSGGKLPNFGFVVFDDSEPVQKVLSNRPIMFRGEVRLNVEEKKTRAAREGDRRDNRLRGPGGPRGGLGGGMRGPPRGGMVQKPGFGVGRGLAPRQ
Technique: RNA Bind-n-Seq
Molecule type: RNA
Sample: in vitro
Concentration: 1 µM
Notes: whole 134-nt RNA, ends assumed
Added: 150 mM KCl
Relative to: input library
Reading: higher = stronger binding
Measurement: log2 enrichment
Oligonucleotide = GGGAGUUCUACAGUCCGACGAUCACCAUGCAGGUGGGCAUCUUUGGGAAGUGGGGCAAGGGGAAAAUAGGGAGGGGGGUAACACUUUGGGAACAGGUGGUCCCAGGUCGUUUCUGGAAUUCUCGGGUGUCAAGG; result = -0.165
Oligonucleotide = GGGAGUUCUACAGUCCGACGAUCGCAGGAAGUAAAAACAAAUGGAAAUGCUUCGGAUAGUGGCAGGGGUGGGGGUUGCUAAGGAAAGGGUGGGAUGGGUGUGGGUAAAGAGUUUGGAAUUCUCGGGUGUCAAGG; result = 0.968
Oligonucleotide = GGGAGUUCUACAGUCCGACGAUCUAACUUUAGAGGAGGAUCUGAUGGAUAUGGCAGUGGACGUGGAUUUGGGCAUGGCUAUAAUGGGUAUGGAGGAGGACCUGGAGGUGGCAAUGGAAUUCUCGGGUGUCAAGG; result = -0.54
Oligonucleotide = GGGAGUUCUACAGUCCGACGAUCUGGCCCUGGUGGCAUGCGGGGAGGAAGAGGUGGCCUCAUGGAUCGUGGUGGUCCCGGUGGAAUGUUAAGAGGUGGCCGUGGUGGAGACAGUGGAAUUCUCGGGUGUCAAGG; result = 2.18
Oligonucleotide = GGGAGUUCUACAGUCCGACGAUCCCUGUGCUACACAUCGUAUGUACCGAAUCGGAAAAAAAGGGAAAAAAAGGGAAAAAAAGGGAAAGUAUUAUGUUACGCCGUUCGGAUCUGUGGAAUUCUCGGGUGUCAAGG; result = 0.0255
Oligonucleotide = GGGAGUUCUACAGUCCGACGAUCAGUCCUGUGCUACACAUCGUAUGUACCGAAUCGGGUUUUUGGUUUUUGGUUUUUGGGAAAGUAUUAUGUUACGCCGUUCGGAUCUGCACUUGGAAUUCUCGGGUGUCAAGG; result = -0.2
Oligonucleotide = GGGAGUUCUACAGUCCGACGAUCUCAAGUCCUGUGCUACACAUCGUAUGUACCGAAUCGUGUGUGUGUGUGUGUGUGUAAAGUAUUAUGUUACGCCGUUCGGAUCUGCACUUCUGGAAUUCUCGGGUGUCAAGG; result = -0.0982
Oligonucleotide = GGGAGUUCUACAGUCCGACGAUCCAAGUCCUGUGCUACACAUCGUAUGUACCGAAUCGGGGCCCGGGGCCCGGGCCCGGAAAGUAUUAUGUUACGCCGUUCGGAUCUGCACUUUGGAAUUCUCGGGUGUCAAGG; result = -0.721
Oligonucleotide = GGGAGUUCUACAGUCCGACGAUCGUCCUGUGCUACACAUCGUAUGUACCGAAUCAAAUUUUUAAACCCCCCCAAAUUUAAAAAAGUAUUAUGUUACGCCGUUCGGAUCUGCACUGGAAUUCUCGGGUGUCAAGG; result = -0.303

Block 4
Target: Centromere-binding protein 1, full length, N-terminal tag (CBF1, Saccharomyces cerevisiae, UniProt P17106, residues 1-351)
UniProt P17106, sequence (whole entry, looked up): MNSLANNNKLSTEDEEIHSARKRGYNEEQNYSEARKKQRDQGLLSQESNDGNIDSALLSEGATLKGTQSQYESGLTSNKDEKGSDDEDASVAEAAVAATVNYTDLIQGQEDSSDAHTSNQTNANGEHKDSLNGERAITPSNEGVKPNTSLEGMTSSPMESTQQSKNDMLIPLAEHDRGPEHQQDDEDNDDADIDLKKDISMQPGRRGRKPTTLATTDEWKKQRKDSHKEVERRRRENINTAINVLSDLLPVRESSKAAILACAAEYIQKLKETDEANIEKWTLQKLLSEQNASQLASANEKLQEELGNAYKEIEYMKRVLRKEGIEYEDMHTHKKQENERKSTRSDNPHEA
Technique: protein-binding microarray
Molecule type: double-stranded DNA, one strand shown
Sample: in vitro
Concentration: 0.8 µM
Notes: whole 60-bp probe, no competitor
Reading: higher = stronger binding
Measurement: fluorescence intensity
Oligonucleotide = CTAGAAGTAATAACGAAGGTGGTGTAGAGTATATTCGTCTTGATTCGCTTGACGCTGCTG; result = 476 a.u.
Oligonucleotide = CTACGTAGGATTGGACACGAGGTTCTTTTTTTATTCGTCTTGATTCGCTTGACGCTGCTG; result = 737 a.u.
Oligonucleotide = GAATTTCGGGAAGATCACAACAGTAGTAGCAAGTAGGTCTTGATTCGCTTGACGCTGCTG; result = 516 a.u.
Oligonucleotide = GAAAACCTCATTCGTCATGTGAGAGATGCATGCTAGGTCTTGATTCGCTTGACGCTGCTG; result = 1030 a.u.
Oligonucleotide = CTACAAATCGGAATTTGAGTCACAGATCCCAGATTCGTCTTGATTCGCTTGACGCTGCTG; result = 533 a.u.
Oligonucleotide = CTATAGGAATTGTGCGTGGTCATTCAATACGGATTCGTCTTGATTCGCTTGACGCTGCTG; result = 550 a.u.
Oligonucleotide = GAAGGAAACCGTTGTCACGATGTAATTAAAATTTAGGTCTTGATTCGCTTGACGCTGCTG; result = 795 a.u.
Oligonucleotide = CTAGCATCATACTACCACGATCACAGTTCACGATTCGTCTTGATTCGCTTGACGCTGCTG; result = 558 a.u.
Oligonucleotide = CTAATAGTTCTAAAGCACGCATATATATTTATATTCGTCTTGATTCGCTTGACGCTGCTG; result = 537 a.u.
Oligonucleotide = CTAACCCATTTCGCCATCACTATTTTTACCATTTTCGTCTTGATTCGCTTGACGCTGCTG; result = 511 a.u.
Oligonucleotide = CTATGGGAATTCTCTGATGTTGTTTTCCAAAGATTCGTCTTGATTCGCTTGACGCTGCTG; result = 511 a.u.
Oligonucleotide = CTAGGTCTCTCTCACCTCGTGATGTTACGAACGTTCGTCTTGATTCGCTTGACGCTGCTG; result = 1530 a.u.
Oligonucleotide = CTACTTGATTAAAGTCACGCTTTCACCAAATATTTCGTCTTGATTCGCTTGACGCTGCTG; result = 1620 a.u.
Oligonucleotide = TGTACGAAGCTATGTCAGGTATATATAGTAGTTAGGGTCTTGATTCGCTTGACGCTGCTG; result = 543 a.u.
Oligonucleotide = CCTAACTACTATAGACATGTGTTATAGCTTCGTACAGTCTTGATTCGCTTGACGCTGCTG; result = 633 a.u.
Oligonucleotide = CCTAACTACTATAGACACGCGCAATAGCTTCGTACAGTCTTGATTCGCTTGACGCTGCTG; result = 589 a.u.
Oligonucleotide = CTAGCTTGAAGTGATGATGTTACATGTCAAAGATTCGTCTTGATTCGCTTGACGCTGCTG; result = 554 a.u.

Repeated from above (block 4):
Oligonucleotide = CTACGTAGGATTGGACACGAGGTTCTTTTTTTATTCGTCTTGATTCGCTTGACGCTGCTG; result = 737 a.u.
Oligonucleotide = GAATTTCGGGAAGATCACAACAGTAGTAGCAAGTAGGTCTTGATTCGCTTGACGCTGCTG; result = 516 a.u.
Oligonucleotide = GAAAACCTCATTCGTCATGTGAGAGATGCATGCTAGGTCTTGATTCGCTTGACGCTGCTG; result = 1030 a.u.
Oligonucleotide = CTACAAATCGGAATTTGAGTCACAGATCCCAGATTCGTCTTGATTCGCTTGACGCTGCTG; result = 533 a.u.
Oligonucleotide = CTATAGGAATTGTGCGTGGTCATTCAATACGGATTCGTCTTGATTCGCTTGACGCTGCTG; result = 550 a.u.
Oligonucleotide = GAAGGAAACCGTTGTCACGATGTAATTAAAATTTAGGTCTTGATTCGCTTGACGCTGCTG; result = 795 a.u.
Oligonucleotide = CTAGCATCATACTACCACGATCACAGTTCACGATTCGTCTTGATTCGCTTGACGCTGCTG; result = 558 a.u.
Oligonucleotide = CTAATAGTTCTAAAGCACGCATATATATTTATATTCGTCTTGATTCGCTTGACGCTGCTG; result = 537 a.u.
